Published values of several laboratories.
Each line is one published result; not all experiments were run side by side. Numbers after ± are the reported error.
TAGLN: Transgelin (TAGLN, Homo sapiens, UniProt Q01995)
Chain of UniProt Q01995 (whole entry, looked up): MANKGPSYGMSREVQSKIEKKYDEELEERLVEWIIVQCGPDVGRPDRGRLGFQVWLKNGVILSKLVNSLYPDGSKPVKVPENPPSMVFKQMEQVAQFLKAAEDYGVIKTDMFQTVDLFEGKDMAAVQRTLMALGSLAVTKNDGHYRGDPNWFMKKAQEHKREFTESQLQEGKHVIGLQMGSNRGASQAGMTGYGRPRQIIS
Chain of UniProt Q9H4M9 (whole entry, looked up): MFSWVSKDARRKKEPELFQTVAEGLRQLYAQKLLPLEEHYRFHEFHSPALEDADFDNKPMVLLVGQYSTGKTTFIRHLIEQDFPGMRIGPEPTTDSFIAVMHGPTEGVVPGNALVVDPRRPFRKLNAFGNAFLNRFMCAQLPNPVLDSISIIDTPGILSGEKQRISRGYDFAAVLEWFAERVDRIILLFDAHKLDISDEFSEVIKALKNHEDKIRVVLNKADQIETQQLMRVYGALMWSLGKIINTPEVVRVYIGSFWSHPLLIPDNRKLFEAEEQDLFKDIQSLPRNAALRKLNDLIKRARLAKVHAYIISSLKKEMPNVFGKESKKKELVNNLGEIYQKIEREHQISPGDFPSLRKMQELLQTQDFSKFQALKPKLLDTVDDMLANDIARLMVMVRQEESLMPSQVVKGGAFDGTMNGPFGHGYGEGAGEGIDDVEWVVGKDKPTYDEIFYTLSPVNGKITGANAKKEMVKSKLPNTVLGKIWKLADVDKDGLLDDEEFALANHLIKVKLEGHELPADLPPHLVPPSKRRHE
Chain of UniProt P31652 (whole entry, looked up): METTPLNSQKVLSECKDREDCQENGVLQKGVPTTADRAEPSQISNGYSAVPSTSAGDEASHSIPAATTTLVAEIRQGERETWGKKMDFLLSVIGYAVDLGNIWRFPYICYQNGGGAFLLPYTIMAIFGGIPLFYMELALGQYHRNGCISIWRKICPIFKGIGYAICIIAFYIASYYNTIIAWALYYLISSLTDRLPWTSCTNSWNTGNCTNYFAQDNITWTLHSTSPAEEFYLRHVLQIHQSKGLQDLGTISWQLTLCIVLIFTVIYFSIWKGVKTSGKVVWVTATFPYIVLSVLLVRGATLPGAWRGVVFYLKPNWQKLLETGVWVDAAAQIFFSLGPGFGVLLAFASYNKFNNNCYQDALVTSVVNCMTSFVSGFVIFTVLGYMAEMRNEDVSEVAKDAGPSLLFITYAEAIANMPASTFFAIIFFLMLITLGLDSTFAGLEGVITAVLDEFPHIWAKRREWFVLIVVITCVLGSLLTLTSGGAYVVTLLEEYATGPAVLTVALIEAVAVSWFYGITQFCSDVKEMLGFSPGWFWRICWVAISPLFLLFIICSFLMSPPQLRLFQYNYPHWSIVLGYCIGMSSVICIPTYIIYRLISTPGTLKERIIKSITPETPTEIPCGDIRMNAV
Chain of UniProt Q05655 (whole entry, looked up): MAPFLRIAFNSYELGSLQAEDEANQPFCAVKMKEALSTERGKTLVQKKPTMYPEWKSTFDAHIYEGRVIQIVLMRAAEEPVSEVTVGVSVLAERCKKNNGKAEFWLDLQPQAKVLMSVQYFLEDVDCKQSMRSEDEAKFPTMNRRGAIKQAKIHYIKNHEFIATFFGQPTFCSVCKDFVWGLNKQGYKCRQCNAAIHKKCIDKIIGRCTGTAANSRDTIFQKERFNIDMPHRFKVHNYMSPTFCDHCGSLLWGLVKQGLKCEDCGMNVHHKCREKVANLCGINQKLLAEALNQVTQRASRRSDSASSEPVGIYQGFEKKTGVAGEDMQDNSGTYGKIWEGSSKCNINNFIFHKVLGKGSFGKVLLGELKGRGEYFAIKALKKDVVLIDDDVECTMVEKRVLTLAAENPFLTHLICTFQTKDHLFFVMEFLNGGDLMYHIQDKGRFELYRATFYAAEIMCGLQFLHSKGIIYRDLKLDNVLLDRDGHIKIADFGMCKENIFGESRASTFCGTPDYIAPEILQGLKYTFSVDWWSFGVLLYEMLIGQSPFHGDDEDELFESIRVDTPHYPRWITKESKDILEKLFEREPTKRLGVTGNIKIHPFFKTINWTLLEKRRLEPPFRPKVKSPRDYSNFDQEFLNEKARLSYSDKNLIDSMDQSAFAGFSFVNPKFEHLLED
Chain of UniProt Q96GD4 (whole entry, looked up): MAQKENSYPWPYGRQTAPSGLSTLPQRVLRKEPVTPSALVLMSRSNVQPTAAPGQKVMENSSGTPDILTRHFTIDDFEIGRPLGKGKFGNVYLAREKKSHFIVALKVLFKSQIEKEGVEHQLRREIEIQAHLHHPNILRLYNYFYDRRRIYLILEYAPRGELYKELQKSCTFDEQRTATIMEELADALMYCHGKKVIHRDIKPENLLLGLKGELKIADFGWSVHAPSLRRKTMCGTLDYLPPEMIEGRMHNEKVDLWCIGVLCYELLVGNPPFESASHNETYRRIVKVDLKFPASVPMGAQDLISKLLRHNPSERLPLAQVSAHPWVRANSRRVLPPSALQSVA
Chain of UniProt Q9UBF8 (whole entry, looked up): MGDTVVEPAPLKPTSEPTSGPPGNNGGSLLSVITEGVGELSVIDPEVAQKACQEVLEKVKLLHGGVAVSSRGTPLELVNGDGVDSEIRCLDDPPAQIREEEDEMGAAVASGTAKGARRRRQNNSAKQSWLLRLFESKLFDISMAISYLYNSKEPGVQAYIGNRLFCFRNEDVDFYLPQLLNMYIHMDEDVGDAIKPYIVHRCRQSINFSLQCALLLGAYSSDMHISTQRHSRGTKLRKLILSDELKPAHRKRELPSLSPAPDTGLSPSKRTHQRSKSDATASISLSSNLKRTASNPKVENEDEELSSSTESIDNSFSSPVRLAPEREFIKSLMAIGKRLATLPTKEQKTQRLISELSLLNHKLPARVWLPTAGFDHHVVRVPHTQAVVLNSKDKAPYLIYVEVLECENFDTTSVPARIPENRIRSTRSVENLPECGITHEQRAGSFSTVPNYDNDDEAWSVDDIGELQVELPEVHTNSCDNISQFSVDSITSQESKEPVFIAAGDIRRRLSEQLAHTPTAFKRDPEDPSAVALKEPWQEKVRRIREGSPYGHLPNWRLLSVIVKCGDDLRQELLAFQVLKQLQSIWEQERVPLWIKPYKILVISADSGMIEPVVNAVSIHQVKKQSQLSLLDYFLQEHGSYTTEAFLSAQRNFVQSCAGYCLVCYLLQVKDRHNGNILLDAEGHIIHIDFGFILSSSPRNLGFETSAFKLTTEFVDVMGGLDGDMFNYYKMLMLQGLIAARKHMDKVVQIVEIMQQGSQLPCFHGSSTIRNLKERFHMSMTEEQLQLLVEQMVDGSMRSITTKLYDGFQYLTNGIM
Chain of UniProt P31641 (whole entry, unmodified, looked up): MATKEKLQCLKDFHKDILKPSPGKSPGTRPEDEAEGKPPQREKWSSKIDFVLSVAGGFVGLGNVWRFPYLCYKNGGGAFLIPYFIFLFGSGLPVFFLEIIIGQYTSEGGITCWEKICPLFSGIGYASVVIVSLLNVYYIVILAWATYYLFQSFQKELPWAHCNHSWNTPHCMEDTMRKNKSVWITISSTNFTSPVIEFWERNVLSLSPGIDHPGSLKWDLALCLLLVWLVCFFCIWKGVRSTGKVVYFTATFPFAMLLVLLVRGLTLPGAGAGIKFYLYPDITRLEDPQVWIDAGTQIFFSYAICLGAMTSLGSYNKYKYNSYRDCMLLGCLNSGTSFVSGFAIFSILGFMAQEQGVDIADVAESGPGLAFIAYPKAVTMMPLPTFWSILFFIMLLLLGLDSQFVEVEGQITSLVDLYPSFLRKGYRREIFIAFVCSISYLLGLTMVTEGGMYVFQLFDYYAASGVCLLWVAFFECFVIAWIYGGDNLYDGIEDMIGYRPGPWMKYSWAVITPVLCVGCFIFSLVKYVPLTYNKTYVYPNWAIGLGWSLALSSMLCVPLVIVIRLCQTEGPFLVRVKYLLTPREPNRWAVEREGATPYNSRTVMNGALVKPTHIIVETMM
Chain of UniProt Q9SZU7 (whole entry, unmodified, looked up): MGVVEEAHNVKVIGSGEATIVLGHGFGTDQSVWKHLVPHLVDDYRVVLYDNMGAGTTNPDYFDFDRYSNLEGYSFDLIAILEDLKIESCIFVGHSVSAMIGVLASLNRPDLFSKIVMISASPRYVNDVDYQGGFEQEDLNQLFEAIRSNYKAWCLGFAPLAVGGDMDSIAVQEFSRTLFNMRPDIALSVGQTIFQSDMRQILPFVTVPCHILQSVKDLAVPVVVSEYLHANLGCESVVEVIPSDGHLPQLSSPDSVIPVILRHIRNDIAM
Chain of UniProt P50391 (whole entry, looked up): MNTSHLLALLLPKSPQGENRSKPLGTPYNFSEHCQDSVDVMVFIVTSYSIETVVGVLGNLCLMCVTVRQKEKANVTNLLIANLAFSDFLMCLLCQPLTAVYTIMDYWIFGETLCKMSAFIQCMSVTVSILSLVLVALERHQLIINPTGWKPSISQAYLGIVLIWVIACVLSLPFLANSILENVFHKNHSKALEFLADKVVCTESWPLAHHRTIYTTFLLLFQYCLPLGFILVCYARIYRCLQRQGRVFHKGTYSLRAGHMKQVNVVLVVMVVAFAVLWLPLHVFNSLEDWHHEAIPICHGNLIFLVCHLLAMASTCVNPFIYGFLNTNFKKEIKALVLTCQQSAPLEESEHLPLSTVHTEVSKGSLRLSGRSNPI

With `Cc1nn(-c2cccc(N)c2)c(=O)c2cnc(Nc3ccc(N4CCNCC4)cc3)nc12` the IC50 was over 10 µM (Aurora kinase B (AURKB, Homo sapiens, UniProt Q96GD4); enzyme activity, inhibitor).
With `NC(=O)C[C@@H]1NC(=O)[C@H](Cc2ccc(O)cc2)NC(=O)CNC(=O)CNC(=O)[C@H](CCC(=O)O)NC(=O)[C@H](CCC(=O)O)NC(=O)[C@H](Cc2ccccc2)NC(=O)[C@@H]2CCCN2C1=O` the Kd was 2.5 µM (EH domain-containing protein 1 (Homo sapiens, UniProt Q9H4M9); binding, ITC).
With `Cn1ncc2cc(-c3cncc(Cl)c3N3CCC4(CCNC4=O)CC3)ccc21` the Kd was 13 µM (PRKCD (Homo sapiens, UniProt Q05655); cell-free assay; lysate).
For `NCCC(=O)O`, the Kd was 872 ± 1470 µM (SLC6A6 (Homo sapiens, UniProt P31641, S402A)).
For `CCOC(=O)C(CCNC(=O)CCc1ccc(O)c(O)c1CCc1ccc(O)c(O)c1)Cc1cccc(O)c1` (stereo not shown), the Kd was 602 µM (TAGLN; binding, surface plasmon resonance).
`O=C1C2CCCN2C(c2cccs2)N1c1ccc(Cl)c(Cl)c1` (stereo not shown) gave a Ki of 0.0861 µM (Slc6a4 (Rattus norvegicus, UniProt P31652); ligand displacement, radioligand).
`CCN(CC)CC(=O)Nc1cccc(-n2cc(-c3ccc4ccc(-c5cn(-c6cccc(NC(=O)CN(CC)CC)c6)nn5)cc4c3)nn2)c1` has an IC50 of over 10 µM (PI4KB (Homo sapiens, UniProt Q9UBF8); enzyme activity, inhibitor).
`Cc1cccc2c1N(C(=O)n1ccnn1)CC2` has a Kd of 442 µM (KAI2 (Arabidopsis thaliana, UniProt Q9SZU7, F194A); ITC; F194A mutant, mean).
With `CCOC(=O)C(CCNC(=O)/C=C/c1ccc(O)c(O)c1/C=C/c1ccc(O)c(O)c1)Cc1ccccc1` (stereo not shown) the Kd was 1350 µM (TAGLN; binding, surface plasmon resonance).
`CC(C)C[C@H](NC(=O)[C@H](CCCNC(=N)N)NC(=O)[C@H](Cc1ccc(O)cc1)NC(=O)CCCCCCC(=O)N[C@@H](Cc1ccc(O)cc1)C(=O)N[C@@H](CCCNC(=N)N)C(=O)N[C@@H](CC(C)C)C(=O)NN(CCCNC(=N)N)C(=O)N[C@@H](Cc1ccc(O)cc1)C(N)=O)C(=O)NN(CCCNC(=N)N)C(=O)N[C@@H](Cc1ccc(O)cc1)C(N)=O` gave a Kb of 0.0506 ± 0.0002 µM (NPY4R (Homo sapiens, UniProt P50391); antagonist; cell-based).

Repeated from above:
With `Cc1nn(-c2cccc(N)c2)c(=O)c2cnc(Nc3ccc(N4CCNCC4)cc3)nc12` the IC50 was over 10 µM (Aurora kinase B (AURKB, Homo sapiens, UniProt Q96GD4); enzyme activity, inhibitor).
